Assay results of several laboratories.
Protocols differ between the studies behind these lines. Several values in a cell are separate wells, animals, samples, runs or records. ± gives the spread as reported.
CHRM4: Muscarinic acetylcholine receptor M4 (CHRM4, Homo sapiens, UniProt P08173)
CASP1: Caspase-1 (CASP1, Homo sapiens, UniProt P29466)
Rhomboid protease AarA: Rhomboid protease AarA (Providencia stuartii, UniProt P46116)
PPARG: Peroxisome proliferator-activated receptor gamma (PPARG, Homo sapiens, UniProt P37231)
T1: ssRNA, hairpin with 1x1 G/G internal loops (Homo sapiens); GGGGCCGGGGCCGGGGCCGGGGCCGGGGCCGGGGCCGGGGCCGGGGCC

CCCCOc1ccc(C(=O)OCCN2CC=CCC2)cc1  basal binding (CHRM4; membranes; 10 µM, 15 h, no carbachol; baseline: control): 1.23 ± 0.06 fold
C=CC(=O)Nc1cccc(Cn2ncc3cnc(Nc4cnn(CCOC)c4)nc32)c1  percent of control (FGFR2 human; binding, KINOMEscan; 100 nM; lower = stronger binding): 27%
O=C(CN1CCCN(C(=O)CN2CCCN(Cc3cccc4cnccc34)CC2)CC1)NCc1cccc2cnccc12  Kd (T1, ssRNA, hairpin with 1x1 G/G internal loops (Homo sapiens); BLI): 17000 nM
CC(C)C[C@H](NC(=O)[C@@H](CCCCNC(=O)[C@@H](Cc1ccccc1)NC(=O)CCCCCNC(=O)CN1CCN(CC(=O)O)CCN(CC(=O)O)CCN(CC(=O)O)CC1)NC(=O)[C@H](Cc1ccc(O)cc1)NC(=O)[C@H](CO)NC(=O)[C@H](Cc1c[nH]c2ccccc12)NC(=O)[C@H](Cc1c[nH]cn1)NC(=O)[C@@H]1CCC(=O)N1)C(=O)N[C@@H](CCCNC(=N)N)C(=O)N1CCC[C@H]1C(=O)NCC(N)=O [indium-111 labelled]  tissue uptake (female athymic nude mice, spleen; intravenous, 0.037 MBq, 4 h): 0.07 ± 0.03 %ID/g
C[N+]1(C)CCCC1  koff (Chrnd/Chrna1/Chrne (Mus musculus, UniProt P02716+P04756+P20782, G173A/S470W); binding, agonist, single-channel recording; binding site chain A side): 2880 s⁻¹
C=C(NC(=O)c1csc(-c2nc3c(cc2O)-c2nc(cs2)C(=O)NC(C(C)O)C(=O)NC(=C(C)OC)c2nc(cs2)C(=O)NC2c4nc(cs4)C(=O)NC(COC(=O)c4c5c6c(cccc6n4O)COC(=O)C(OC4CC(C)(O)C(N(C)C)C(C)O4)C2OC5)c2nc-3cs2)n1)C(N)=O (stereo not drawn)  lung bacterial load (Streptococcus pneumoniae; -4, immunocompromised mice, lung; 4 mg/kg/day once daily, 24 h post-dose): 5.49 log10 CFU/lung
COC1CN([C@H]2CC[C@H]([C@@]3(C)Oc4c(Cl)cc(C(=O)NCc5c(SC)cc(C)[nH]c5=O)c(C)c4O3)CC2)C1  log2 fold change (RNA-seq, refers to: PITHD1 mouse homolog; mouse, HT-1376 xenograft, whole blood; dose not given; baseline: vehicle): 0.708
COc1cc(C(=O)N2CC[C@@H](O)[C@@H](N)C2)cc2nc(-c3cc4cccnc4n3CC3CC3)n(C)c12  koff (PADI4 (Homo sapiens, UniProt Q9UM07); binding, surface plasmon resonance): 0.00652 s⁻¹
CC(=O)N[C@@H](CC(=O)O)C(=O)N[C@@H](CCCC(=O)O)C(=O)N[C@@H](CC(C)C)C(=O)N[C@@H](CC(=O)O)C(=O)COC(=O)c1c(C)cccc1C  kobs/[I] (CASP1; inhibitor; recombinant enzyme): 45000 M⁻¹ s⁻¹
Nc1ncc(-c2cc(-c3cnn(CC(F)(F)F)c3)ncc2F)nc1C(=O)NC1CNCC(F)C1 (stereo not drawn)  remaining binding (FLT4; KINOMEscan; 1 µM; baseline: DMSO control): 87%
CCN(CC)C(CO)c1cccc2c(C)c(C)oc12 (stereo not drawn)  fold change (LPAR1 (Homo sapiens, UniProt Q92633); G-protein dissociation, agonist, NanoBiT; HEK-293T; 100 nM, wild-type receptor; baseline: baseline luminescence): 0.598 and 0.822 and 0.6 and 0.599 and 0.697
CCc1cc(O)cc2c(/C=N/NC(=N)NCCc3ccc(Cl)cc3)c[nH]c12  Emax (RXFP3 (Homo sapiens, UniProt Q9NSD7, S159A/S163A); HEK-293T; baseline: wild type): 67.6 ± 6.36%
CC(=O)N1C[C@H](O)C[C@H]1C(=O)N[C@@H](CC(C)C)C(=O)N[C@@H](C)C(=O)N[C@@H](CC(=O)O)C(=O)COC(=O)c1c(C)cccc1C  kinact/KI (CASP1; enzyme activity, inhibitor): 424000 M⁻¹ s⁻¹
Cc1cccc(C)c1NC(=O)C(C(F)(F)F)C(F)(F)F  selectivity ratio (Rhomboid protease AarA; baseline: IC50 chymotrypsin over IC50 AarA): 0.5
O=c1[nH]cnc2c(CNCCCP(=O)(O)O)c[nH]c12  selectivity ratio (Uncharacterized protein (Trypanosoma cruzi, UniProt Q4DRC3); inhibitor, spectrophotometric IMP formation; baseline: human HGPRT Ki over Uncharacterized protein Ki): 0.15
O=C(O)C1OC(Oc2cc(-c3oc4cc(O)ccc4c(=O)c3O)ccc2O)C(O)C(O)C1O (stereo not drawn)  Vmax (UGT1A1 (Homo sapiens, UniProt P22309); glucuronidation; Supersomes): 3260 ± 2500 pmol/min/mg
N=C(N)NCCC[C@H](NC(=O)[C@H](Cc1ccc(O)cc1)NC(=O)CNC(=O)[C@H](Cc1c[nH]cn1)NC(=O)[C@H](Cc1c[nH]cn1)NC(=O)[C@H](CCCNC(=N)N)NC(=O)[C@H](CCCCN)NC(=O)[C@H](CCC(=O)O)NC(=O)[C@H](Cc1c[nH]cn1)NC(=O)[C@H](COP(=O)(O)O)NC(=O)[C@@H](N)CC(=O)O)C(=O)N[C@@H](CCCNC(=N)N)C(=O)N[C@@H](CCCCN)C(=O)N[C@@H](Cc1ccccc1)C(=O)O  binding response (TMEM97 (Homo sapiens, UniProt Q5BJF2); SPR; concentration not given, 25 °C; baseline: Rmax): 37%
CC(=O)N[C@@H](CC(=O)O)C(=O)N[C@@H](CCC(=O)O)C(=O)N[C@@H](CC(C)C)C(=O)N[C@@H](CC(=O)O)C(=O)COC(=O)c1c(C)cccc1C  kinact/KI (CASP1; enzyme activity, inhibitor): 36000 M⁻¹ s⁻¹
CC(C)Oc1cc(Cl)ccc1CNc1cc(-c2ccccc2)nc2ncnn12  cAMP luminescence (GPR3 (Homo sapiens, UniProt P46089, V196W); cAMP level, cAMP GloSensor; 100 pM; higher = more cAMP): 49500 a.u. and 34100 a.u. and 51300 a.u. and 31600 a.u.
O=C(CC(Nc1ccc(Cl)cc1C(=O)c1ccccc1)C(=O)O)c1ccccc1 (stereo not drawn)  koff (Heat shock protein HSP 90-alpha, N-terminal domain (HSP90AA1, Homo sapiens, UniProt P07900); SPR, two-state model; N-terminal domain): 0.0484 ± 0.0386 s⁻¹
COc1cc(C2C(NC(=O)c3ccc(NC(=O)OC(C)(C)C)cc3)(C(=O)O)C(c3ccc(OC(=O)c4cccs4)c(OC)c3)C2(NC(=O)c2ccc(NC(=O)OC(C)(C)C)cc2)C(=O)O)ccc1OC(=O)c1cccs1 (stereo not drawn)  Emax (GLP1R (Homo sapiens, UniProt P43220, R380A); cAMP accumulation, agonist; receptor mutant; baseline: wild type): 68.2 ± 7.12%
CC(C=CC=C(C)C=CC1=C(C)CCCC1(C)C)=CC=O  Pearson correlation coefficient (Rhodopsin (RHO, Homo sapiens, UniProt P08100, P23H); ER retention, immunostaining co-localization, refers to: opsin with calnexin; COS-7 transfected P23H; 50.00 µM): 0.57
CCCCCC(O)/C=C/C=O (stereo not drawn)  isoTOP-ABPP competition ratio (WW domain-containing adapter protein with coiled-coil (WAC, Homo sapiens, UniProt Q9BTA9); competitive isoTOP-ABPP; Ramos soluble proteome; 100 µM, added: iodoacetamide probe; baseline: DMSO over compound-treated, higher = stronger cysteine blockade): 1.8
CC(=O)N[C@H](C(=O)N[C@@H](CCCCN)C(=O)N[C@@H](CCC(N)=O)C(=O)N[C@@H](CC(=O)O)C(=O)COC(=O)c1c(C)cccc1C)C(C)C  kinact/KI (CASP1; enzyme activity, inhibitor): 3000 M⁻¹ s⁻¹
CCCCOc1ccc(C(=O)OCC[N+]2(C)CC=CCC2)cc1 (stereo not drawn)  basal binding (CHRM4; membranes; 10 µM, 15 h, no carbachol; baseline: control): 0.93 ± 0.05 fold
O=C1CCN1C(=O)NCc1ccccc1  IC50 (Rhomboid protease AarA; substrate cleavage, inhibitor, gel-based): inactive
Cc1c(Cc2ccc(OC(C)C(=O)O)cc2)c2ccc(C(=O)NC(C)c3cccc(C(F)(F)F)c3)cc2n1C (mixture of isomers)  IC50 (PPARG; ligand displacement, TR-FRET): 82 nM
COc1ccccc1C(=O)C(F)(F)F  IC50 (Rhomboid protease AarA; enzyme activity, inhibitor, fluorogenic peptide substrate): inactive
O=C1Cc2cc(Br)ccc2N1  product formed (Dehaloperoxidase B, ferric (Amphitrite ornata, UniProt Q9NAV7); product, HPLC; 5 min, pH 7, 25 °C, enzyme 10 µM, added: 5-bromoindole and H2O2 500 µM each): 105 M
OC1CCCCC1N1CCC(c2ccc(Br)cc2)CC1 (racemic)  selectivity ratio (Vesicular acetylcholine transporter (Rattus norvegicus, UniProt Q62666); baseline: Ki sigma1 over Ki VAChT): 0.018
Cc1nnc(NC(=O)c2cc([C@@H]3C[C@H]3NC3CCC3)ccc2Br)s1 (relative stereo)  remaining activity (KDM1A (Homo sapiens, UniProt O60341); demethylase activity, inhibitor, Amplex Red; 0.7407 µM, added: H3K4me2 peptide; baseline: vehicle): 86.9%
COc1ccc(OC)c2c1CN(c1cn[nH]c(=O)c1Cl)CC2O (stereo not drawn)  IC50 (Plasmodium falciparum; parasite growth, parasite lactate dehydrogenase; NF54): > 6000 nM
CC(=O)N[C@@H](CCC(C)C)C(=O)N[C@@H](CCCC(=O)O)C(=O)N[C@@H](CO)C(=O)N[C@@H](CC(=O)O)C(=O)COC(=O)c1c(C)cccc1C  kinact/KI (CASP1; enzyme activity, inhibitor): 897000 M⁻¹ s⁻¹
Cc1c(Cc2ccc(Cl)c(O[C@H](C)C(=O)O)c2)c2ccc(C(=O)NCc3ccc(C(C)(C)C)cc3)cc2n1C  IC50 (PPARG; ligand displacement, TR-FRET): 6.12 nM
CCC[C@H](NC(=O)[C@H](CC(=O)O)NC(C)=O)C(=O)N1[C@H](C(=O)N[C@@H](CC(=O)O)C(=O)COC(=O)c2c(C)cccc2C)C[C@@H]2CCCC[C@@H]21  kinact/KI (CASP1; enzyme activity, inhibitor): 22400 M⁻¹ s⁻¹
CC(C)(O)c1ccn2c(-c3ccc(F)c(-c4ccc(F)cc4C#N)c3)cnc2c1F  duration of protein increase (GABRA1 (Homo sapiens, UniProt P14867, D219N); total protein level, Western blot; HEK-293T stably expressing GABAA receptors; 5 µM, single dose, added: hispidulin 10 µM): ≥ 48 h

For quick reference, copied from above:
COC1CN([C@H]2CC[C@H]([C@@]3(C)Oc4c(Cl)cc(C(=O)NCc5c(SC)cc(C)[nH]c5=O)c(C)c4O3)CC2)C1  log2 fold change (RNA-seq, refers to: PITHD1 mouse homolog; mouse, HT-1376 xenograft, whole blood; dose not given; baseline: vehicle): 0.708
CC(=O)N[C@@H](CC(=O)O)C(=O)N[C@@H](CCC(=O)O)C(=O)N[C@@H](CC(C)C)C(=O)N[C@@H](CC(=O)O)C(=O)COC(=O)c1c(C)cccc1C  kinact/KI (CASP1; enzyme activity, inhibitor): 36000 M⁻¹ s⁻¹
N=C(N)NCCC[C@H](NC(=O)[C@H](Cc1ccc(O)cc1)NC(=O)CNC(=O)[C@H](Cc1c[nH]cn1)NC(=O)[C@H](Cc1c[nH]cn1)NC(=O)[C@H](CCCNC(=N)N)NC(=O)[C@H](CCCCN)NC(=O)[C@H](CCC(=O)O)NC(=O)[C@H](Cc1c[nH]cn1)NC(=O)[C@H](COP(=O)(O)O)NC(=O)[C@@H](N)CC(=O)O)C(=O)N[C@@H](CCCNC(=N)N)C(=O)N[C@@H](CCCCN)C(=O)N[C@@H](Cc1ccccc1)C(=O)O  binding response (TMEM97 (Homo sapiens, UniProt Q5BJF2); SPR; concentration not given, 25 °C; baseline: Rmax): 37%
